{"data": "Measurements collected from several papers", "note": "Protocols differ between the studies behind these lines. ± marks the error that the study gave."}
{"Molecule": "Cc1[nH]c(/C=C2\\C(=O)Nc3ccc(F)cc32)c(C)c1C(=O)NCCN1CCCC1", "system": "dogs with lung metastatic osteosarcoma", "conditions": "dose not given, single agent", "quantity": "overall survival", "value": "89 days"}
{"Molecule": "CCOC(=O)C1=C(C)NC(=S)NC1c1ccccc1Br (stereo not shown)", "test": "carotid artery cannulation", "system": "male Wistar rats, anaesthetised", "conditions": "0.3 mL, 3 h", "quantity": "mean arterial pressure", "value": "23 ± 0.97 mm Hg"}
{"Molecule": "Oc1cccc2ccc3ccccc3c12", "system": "zebrafish embryo", "quantity": "EC50", "value": "500 to 5500 nM"}
{"Molecule": "Cc1ccc(NC(=S)NS(=O)(=O)c2cnc(NN)[nH]c2=O)cc1", "test": "oral glucose tolerance test", "system": "HFD/STZ type 2 diabetic rat", "conditions": "oral, 10 mg/kg, together with: glucose 1 g/kg", "quantity": "glucose AUC", "value": "462 ± 35.6 mg·min/dL"}
{"Molecule": "Cc1ccc([C@]2(O)OCC(C)(C)N[C@H]2C)cc1", "test": "nicotine antinociception blockade, antagonist, tail-flick test", "system": "mouse", "conditions": "15 min pretreatment, together with: nicotine 2.5 mg/kg subcutaneous", "quantity": "ED50", "value": "0.004 mg/kg"}
{"Molecule": "CC(=O)N[C@@H](CC(C)C)C(=O)NCC(=O)N[C@@H](Cc1ccc(O)cc1)C(=O)NCC(=O)N[C@@H](CCCCN)C(N)=O", "test": "DSC", "system": "SOPC/cholesterol 7/3 bilayers", "conditions": "10 mol%, pH 7.40", "quantity": "transition enthalpy", "value": "1.4 kcal/mol"}
{"Molecule": "CCOC(=O)C1=C(C)NC(=S)NC1c1ccccc1C#N (stereo not shown)", "test": "carotid artery cannulation", "system": "male Wistar rats, anaesthetised", "conditions": "0.3 mL, 3 h", "quantity": "mean arterial pressure", "value": "22.5 ± 1.11 mm Hg"}
{"Molecule": "CC(=O)N[C@@H](CO)C(=O)N[C@@H](Cc1c[nH]cn1)C(=O)N[C@@H](C)C(=O)N[C@H](C(=O)N[C@@H](CO)C(=O)N[C@@H](CO)C(N)=O)C(C)C", "test": "T1-weighted MRI", "system": "Sprague-Dawley rat", "conditions": "iv, 0.019 mmol/kg, together with: Gd-DTPA", "quantity": "onset of BBB opening", "value": "≤ 3 min"}
{"Molecule": "CC(=O)N[C@@H](CC(C)C)C(=O)N1CCC[C@H]1C(=O)N[C@@H](Cc1ccc(O)cc1)C(=O)N1CCC[C@H]1C(=O)N[C@@H](CCCCN)C(N)=O", "test": "DSC", "system": "SOPC/cholesterol 7/3 bilayers", "conditions": "15 mol%, pH 7.40", "quantity": "transition enthalpy", "value": "1.1 kcal/mol"}
{"Molecule": "acyline", "system": "human men", "conditions": "sc, 300 µg/kg, 24 h", "quantity": "serum oestradiol", "value": "6.6 ± 3.3 pg/mL"}
{"Molecule": "Cc1ccc2cc3c(ccc4ccccc43)c3c2c1CC3", "test": "inducer", "system": "female rat, liver", "conditions": "oral, 10 mg, 24 h, sesame oil vehicle", "quantity": "menadione reductase activity", "value": "83.3 enzyme units"}
{"Molecule": "COC(=O)C1=C(C)NC(C)=C(C(=O)OC)C1c1ccccc1[N+](=O)[O-]", "test": "carotid artery cannulation", "system": "male Wistar rats, anaesthetised", "conditions": "0.3 mL, 3 h", "quantity": "mean arterial pressure", "value": "20.8 ± 0.58 mm Hg"}
{"Molecule": "CN1[C@@H]2C[C@@H](OC(=O)[C@H](CO)c3ccccc3)C[C@H]1[C@@H]1O[C@@H]12", "system": "DBA/2J mice", "conditions": "10 mg/kg, 10 min before challenge, rectal temperature, together with: 3-IC 0.2 mg/kg", "how to read": "reference: saline", "quantity": "hypothermia", "value": "no effect"}
{"Molecule": "atrial natriuretic peptide", "test": "echocardiography", "system": "male Wistar rat, high-fat/STZ type 2 diabetes", "conditions": "subcutaneous osmotic pump, 2 pmol/kg/min, 6 weeks", "quantity": "ejection fraction", "value": "~82%"}
{"Molecule": "CC[C@H](C)[C@H](NC(=O)CNC(=O)[C@H](Cc1c[nH]c2ccccc12)NC(=O)CNC(C)=O)C(=O)N[C@@H](CCCCN)C(N)=O", "test": "DSC", "system": "SOPC/cholesterol 7/3 bilayers", "conditions": "5 mol%, pH 7.40", "quantity": "transition enthalpy", "value": "0.9 kcal/mol"}
{"Molecule": "CCN[C@@H]1C[C@H](N)[C@@H](O[C@H]2OC(CN)=CC[C@H]2N)[C@H](O)[C@H]1O[C@H]1OC[C@](C)(O)[C@H](NC)[C@H]1O", "test": "luciferase synthesis, inhibitor, coupled transcription-translation", "system": "M. smegmatis 70S ribosomes, Leishmania/Trypanosoma hybrid", "conditions": "60 min, 37 °C", "quantity": "IC50", "value": "127 µM"}
{"Molecule": "TYIATGALL", "test": "IFN-γ release, ELISPOT", "system": "peptide, splenocytes, BALB/c mouse immunised", "quantity": "EC50", "value": "< 0.001 nM"}
{"Molecule": "C[C@]12N3Cc4c(c(OCCCS(=O)(=O)[O-])c5ccccc5c4OCCCS(=O)(=O)[O-])CN1C(=O)N1CN4C(=O)N5CN6C(=O)N7CN8C(=O)N9Cc%10c(c(OCCCS(=O)(=O)[O-])c%11ccccc%11c%10OCCCS(=O)(=O)[O-])CN%10C(=O)N(CN%11C(=O)N(CN%12C(=O)N(CN(C3=O)[C@]12C)[C@@H]4[C@H]%125)[C@@H]6[C@H]%117)[C@]8(C)[C@@]9%10C.[Na+].[Na+].[Na+].[Na+]", "system": "Sprague-Dawley rat", "conditions": "intravenous, 20 to 80 mg/kg/min, together with: continuous ketamine infusion", "how to read": "reference: steady-state ketamine", "quantity": "total EEG power", "value": "63%"}
{"Molecule": "Cc1ncc(COCc2cn(Cc3ccccc3C(F)(F)F)nn2)c(CO)c1O", "test": "Zn2+ chelation", "conditions": "100 µM, 30 min, 37 °C, together with: Zn2+ 100 µM", "quantity": "absorbance change", "value": "0%"}
{"Molecule": "C=CC=O", "test": "reaction with cysteine thiol", "conditions": "pH 7.4, corrected for thiolate fraction", "quantity": "log k", "value": 3.42}
{"Molecule": "c1cc2ccc3cccc4ccc(c1)c2c34", "test": "inducer", "system": "female rat, liver", "conditions": "oral, 10 mg, 24 h, sesame oil vehicle", "quantity": "menadione reductase activity", "value": "22.9 enzyme units"}
{"Molecule": "O=c1c2ccccc2[nH]c2nc3nc(-c4ccccc4)cc(-c4ccc5ccccc5n4)c3c(=O)n12", "test": "DPPH scavenging, absorbance", "conditions": "30 min", "quantity": "IC50", "value": "127 µM"}
{"Molecule": "C=C[C@H]1[C@H]2CCC[C@]1(c1cccc(C(N)=O)c1)CCN2CCc1ccccc1", "test": "pain-depressed locomotion", "system": "mice", "conditions": "subcutaneous, together with: intraperitoneal 0.56% lactic acid", "how to read": "reference: vehicle", "quantity": "effective dose", "value": "10 to 18 mg/kg"}
{"Molecule": "CCOc1ccc(Nc2c(C(=O)c3cc(OC)c(OC)c(OC)c3)sc3cc(C)ccc23)cc1", "test": "tubulin polymerisation, inhibitor, absorbance", "conditions": "20 min", "quantity": "IC50", "value": "> 40 µM"}
{"Molecule": "CC(C)[C@H](O)C(=O)N[C@H]1Cc2ccc3c(c2)[C@]2(C4=C(c5nc(CO)co5)N=C(O4)[C@H](C(C)(C)C)NC1=O)c1cc(F)ccc1N[C@@H]2O3", "test": "overall survival", "system": "mice, HT-29 xenograft", "how to read": "reference: vehicle", "quantity": "minimum effective dose", "value": "4.5 mg/m²"}
{"Molecule": "CC(C)OC(=O)[C@H](CCC(=O)C=[N+]=[N-])NC(=O)OC(OC(=O)C(C)(C)C)c1ccccc1 (stereo partly shown)", "system": "mouse flank MPNST model, tumour", "conditions": "dose not given, 14 days", "how to read": "reference: vehicle", "quantity": "Ki67 or cleaved caspase-3", "value": "no effect"}
{"Molecule": "CC(NC(C)(C)C)C(=O)c1cccc(Cl)c1 (stereo not shown)", "test": "nicotine-induced hypothermia, antagonist", "system": "mouse", "conditions": "together with: nicotine 2.5 mg/kg sc", "quantity": "ED50", "value": "9.2 mg/kg"}
{"Molecule": "CC(C)C[C@H](NC(=O)[C@@H](NC(=O)[C@H](Cc1ccc(O)cc1)NC(=O)[C@@H](NC(=O)[C@H](CC(C)C)NC(=O)[C@H](Cc1c[nH]cn1)NC(=O)[C@H](C)NC(=O)[C@H](CC(C)C)NC(=O)[C@@H](N)CCC(N)=O)C(C)C)C(C)C)C(=O)O", "system": "PBMC, human, HSV-1 seropositive, HLA-A*0201+", "conditions": "10 µg/mL, 72 h", "quantity": "IFN-γ+ CD8+ T cells", "value": "≤ 4.3%"}
